# Measured values from different studies.
# Parts stem from different laboratories: compare values within a part only.

# Block 1
# Target: Histone acetyltransferase KAT6A, winged helix 2, GST fusion (KAT6A, Homo sapiens, UniProt Q92794, residues 85-181)
# Method: protein binding microarray
# Molecule type: double-stranded DNA, one strand shown
# Sample: in vitro
# Concentration: not given
# Notes: 8-mer, flanks averaged, mean of 2 arrays, mostly near background
# Relative to: not given
# Reading: higher = stronger binding
# Residues (chain): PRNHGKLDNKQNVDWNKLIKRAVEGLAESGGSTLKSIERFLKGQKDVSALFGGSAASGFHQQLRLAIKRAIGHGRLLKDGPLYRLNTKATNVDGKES
Oligonucleotide,E-score
CATATGGA,-0.139
ACCACAAT,-0.131
ATTGAAAT,0.098
CCACTAGA,-0.148
AACGCACC,-0.0729
AGCAGATG,0.0573
GAAAGCTA,-0.0486
CCTAACCC,-0.269
GTTACAGA,-0.221
GGAACTCC,0.0679
ACCGCTTG,0.0915
CAATTAAC,-0.069
GTACGAGA,-0.00394
CGGGGGAG,-0.0235
AGTATGCA,0.0252
AAAAGGCG,0.0328
GGAGGCTA,-0.0119

# Block 2
# Target: RING finger protein unkempt homolog, zinc fingers 1-6, SBP tag (UNK, Homo sapiens, UniProt Q9C0B0, residues 30-357)
# Chain of UniProt Q9C0B0 (30-357, looked up): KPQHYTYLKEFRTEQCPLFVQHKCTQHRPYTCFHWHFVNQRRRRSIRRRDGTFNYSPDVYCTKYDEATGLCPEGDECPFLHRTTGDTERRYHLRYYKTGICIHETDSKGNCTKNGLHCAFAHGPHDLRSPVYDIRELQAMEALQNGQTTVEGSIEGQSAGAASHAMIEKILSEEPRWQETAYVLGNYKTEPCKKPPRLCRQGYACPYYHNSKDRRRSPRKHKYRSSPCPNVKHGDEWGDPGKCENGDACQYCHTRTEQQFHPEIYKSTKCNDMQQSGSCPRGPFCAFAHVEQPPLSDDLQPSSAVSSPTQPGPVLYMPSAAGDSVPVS
# Method: RNA Bind-n-Seq
# Molecule type: RNA
# Sample: in vitro
# Concentration: 100 nM
# Notes: RNA with constant flanks, vertebrate orthologous sites, ends assumed
# Relative to: input RNA pool
# Reading: higher = stronger binding
Oligonucleotide,bound/input enrichment
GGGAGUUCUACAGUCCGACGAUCAGAAAAUUUUAACCAAGAAUCUGAAGGUAGAAAUACAGGACUGUGGUUGUCUUCCUCAUUUAGAAAUAGAUGUACUCCCUUGUUCUCUAGAAGGAGGCGAGAAGGAAGAGAUGAAUCUUCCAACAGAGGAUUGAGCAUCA,0.706 ratio
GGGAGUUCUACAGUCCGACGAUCGUGACUUUGGACGCCCGCAAGUGUUGAGUGUAGCGAGUCCUCGAUAUUGGGCCUGCCGAGUUAGUUCUCUUCUUCUGGACCCGAAGACCUCUGCCGCAAACAUGCUCCGCCAGAUCAUCGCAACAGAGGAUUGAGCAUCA,0.352 ratio
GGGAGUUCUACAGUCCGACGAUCCCCUCUGAACCCCAUAUCUUCUGUUUCAUAAUGCAGAAGUAUUAUUUUCAAUUAUAUUGUUAGUGGACUUGUUUUAAUUUUAGAGAACUUUGAGUACAGAUACUGUGAGCUUACAUUGAACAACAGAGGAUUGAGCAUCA,3.57 ratio
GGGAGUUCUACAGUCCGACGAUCUAUUUUCUUAUUUUAGGUAUCAUUGCCCAGUGCCUAAGAUCUUUUAUGUUCAGCUCACUGUAGGAAAUAAUGAAUUUUUUGGGGAAGGAAAGACUCGGCAAGCUGCUAGACACAAUGCUGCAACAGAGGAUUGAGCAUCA,1.14 ratio
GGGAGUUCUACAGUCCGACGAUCGAAAAACAAACUGUUGGAGCUGGGCGUUCUGUACCAUCCUUUCUUCAUACCAACGGUAUCUAGUUGUAGGGAUUUAAUAUUUUUUAAAGUUUUACAUUGCUGUAUAUUCAGAGAUUUGUUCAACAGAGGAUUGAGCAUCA,0.611 ratio
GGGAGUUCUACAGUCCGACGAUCUGUGAGCGUCUACAGACAGCUCACCAUUUUUGUCCUGUAUCUGUAAACACUUUUUGUUCUUAGUCUUUUUCUUGUAAAAUUGAUGUUCUUUAAAAUCGUUAAUGUAACAGGGCUUAUGUUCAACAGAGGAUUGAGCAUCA,0.395 ratio
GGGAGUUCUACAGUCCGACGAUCCGUGUUCUUAUUUAUUGAGGAGAGUUUUGUGCUGAGAACUGUAUUGCAUUAAUUUAAAAAUCAGUAGAUUCAUUUCCAUUUAUUGUGUUGCUUUCAUUAUUGAAAAUAAAUAUAACUUUGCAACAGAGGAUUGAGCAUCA,0.564 ratio
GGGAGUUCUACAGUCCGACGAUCUCCUCAACUUGUUCUAGCUUGUGAUCCCUCAAAGUUGGGUCAUACGUUAGUGCUAGAUACUAGAAAUUUUCACUUUUCCACUGAUCAGAGAGACAGACAUUAAAAACAAAAAUAGAAGAACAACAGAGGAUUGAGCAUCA,3.35 ratio
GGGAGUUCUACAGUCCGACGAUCACCCUGGUUGCUUUUUAUCACCUCAGUGAGGUAAGGUCUCCCUUGGCAUGUGGUUGGUUCUAGCGCCAUCAUCCCUAAUCCGUCUUUCCACACUUCCUUGCAUUUCUCCCACACAUAGUCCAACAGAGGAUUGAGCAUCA,0.904 ratio
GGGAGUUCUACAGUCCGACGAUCGGUGACUUUGGACGUCCUCACAGCCCGGCGAGGGUGACGGCUUAGUCUAGACCGACGGGUUCGUUUUCGUCCAUUGGGCUGCAGGCUGCUACCGCAAACAUGCUCCGCCAGAUCGUCGCCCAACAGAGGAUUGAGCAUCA,0.225 ratio
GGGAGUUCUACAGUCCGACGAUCAGCGGUUAGGGUGGGCCGUUCCUCUGCAUUUCCCAUGAGGAGGAAAGCCCAAAUCGAUGACACACAUUUCACACAUCUGAUGAUGAUCUUUUUGUUUUCUGCUUUUACGUAUGCAUCAAACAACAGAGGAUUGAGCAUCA,0.46 ratio

# Block 3
# Target: Ras GTPase-activating protein-binding protein 1, RRM domain (G3BP1, Homo sapiens, UniProt Q13283)
# Chain of UniProt Q13283 (whole entry, looked up): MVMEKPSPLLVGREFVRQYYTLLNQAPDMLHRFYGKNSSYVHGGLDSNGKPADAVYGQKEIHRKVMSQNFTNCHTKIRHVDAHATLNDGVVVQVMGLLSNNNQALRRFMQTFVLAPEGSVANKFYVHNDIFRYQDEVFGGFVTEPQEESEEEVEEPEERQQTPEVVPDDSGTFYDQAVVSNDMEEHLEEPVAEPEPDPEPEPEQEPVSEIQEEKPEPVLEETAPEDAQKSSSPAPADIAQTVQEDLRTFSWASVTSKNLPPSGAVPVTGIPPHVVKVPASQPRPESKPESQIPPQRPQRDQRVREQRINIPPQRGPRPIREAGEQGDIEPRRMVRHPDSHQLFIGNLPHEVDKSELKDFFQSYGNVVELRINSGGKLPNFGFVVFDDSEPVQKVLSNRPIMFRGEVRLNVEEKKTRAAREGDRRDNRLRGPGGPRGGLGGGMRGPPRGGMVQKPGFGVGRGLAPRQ
# Method: RNA Bind-n-Seq
# Molecule type: RNA
# Sample: in vitro
# Concentration: 1 µM
# Notes: whole 134-nt RNA, ends assumed
# With: 150 mM KCl
# Relative to: input library
# Reading: higher = stronger binding
Oligonucleotide,log2 enrichment
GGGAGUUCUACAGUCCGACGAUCGUCCUGUGCUACACAUCGUAUGUACCGAAUCGGGGUUUUUGGGGAAAAAGGGGUGGGGAAAGUAUUAUGUUACGCCGUUCGGAUCUGCACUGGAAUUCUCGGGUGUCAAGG,0.885
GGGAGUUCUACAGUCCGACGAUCUGGGAGGUGGAUUUUGUUUAUUUUUUUAGCUCAUUUCCAGGGGUGGGAAUUUUUUUUUAAUAUGUGUCAUGACUAAAGUUGUUUUUGAAAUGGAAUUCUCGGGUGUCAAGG,1.4
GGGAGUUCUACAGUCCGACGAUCUCAAGUCCUGUGCUACACAUCGUAUGUACCGAAUCGGUUUUUUUGGAGGUUUGGAAAGUAUUAUGUUACGCCGUUCGGAUCUGCACUUCCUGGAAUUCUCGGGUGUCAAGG,-0.242
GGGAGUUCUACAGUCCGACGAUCUCCUGUGCUACACAUCGUAUGUACCGAAUCGGGGUUUUUGGGGUUUUUGGGGUUUUUGGGAAAGUAUUAUGUUACGCCGUUCGGAUCUGCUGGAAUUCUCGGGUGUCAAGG,-0.0333
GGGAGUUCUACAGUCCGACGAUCCAAGUCCUGUGCUACACAUCGUAUGUACCGAAUCGGGCCCGGGGCCCGGCCCGGGGAAAGUAUUAUGUUACGCCGUUCGGAUCUGCACUUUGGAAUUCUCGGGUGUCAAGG,-0.756
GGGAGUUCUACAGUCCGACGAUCUGGCCCUGGUCGCAUGCGGGGAGGAAGAGGUGGCCUCAUGGAUCGUGGUGGUCCCGGUGGAAUGUUCAGAGGUGGCCGUGGUGGAGACAGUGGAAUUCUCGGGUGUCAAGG,0.913
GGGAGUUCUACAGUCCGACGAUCUCAAGUCCUGUGCUACACAUCGUAUGUACCGAAUCGGGCCGGGGCCGGGCCGGGGAAAGUAUUAUGUUACGCCGUUCGGAUCUGCACUUCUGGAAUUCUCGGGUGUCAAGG,-0.728
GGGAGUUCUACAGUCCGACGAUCCAAGUCCUGUGCUACACAUCGUAUGUACCGAAUCGGAAAAAAAGGAAAGGAAAGGAAAGUAUUAUGUUACGCCGUUCGGAUCUGCACUUCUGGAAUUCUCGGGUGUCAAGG,-0.133
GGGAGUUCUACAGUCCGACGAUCUCAAGUCCUGUGCUACACAUCGUAUGUACCGAAUCGGAAAAAAAGGAAAGGUGGAAAGUAUUAUGUUACGCCGUUCGGAUCUGCACUUCCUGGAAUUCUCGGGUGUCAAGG,-0.248
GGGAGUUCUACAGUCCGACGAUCGCAGGGAGUAAAAACAAAUGGAAAUGCUUCGGAUAGUGGCAGGGGUGGGGGUUGCUAAGGAAAGGGUGGGAUGGGAGUGGGUAAAGAGUUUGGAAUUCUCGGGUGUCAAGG,1.16

# Block 4
# Target: RNA binding protein fox-1 homolog 2, RRM domain, GST-SBP tag (RBFOX2, Homo sapiens, UniProt O43251-10, residues 100-194)
# Method: RNA Bind-n-Seq
# Molecule type: RNA
# Sample: in vitro
# Concentration: 365 nM
# Notes: natural RNA segment, single round, ends assumed
# Relative to: no-protein control
# Reading: higher = stronger binding
# Construct (chain): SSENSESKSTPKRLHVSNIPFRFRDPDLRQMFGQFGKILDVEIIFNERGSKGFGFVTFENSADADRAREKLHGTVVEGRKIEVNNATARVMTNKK
Oligonucleotide,RBNS enrichment (R)
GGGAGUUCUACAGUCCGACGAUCUUGCCUCCCUCAGAUAGAAAACAGCCCCCACUCCAGUCCACUCCUGACCCCUCUCCUCAAGGGAAGGCCUUGGGUGGCCCCCUCUCCUUCUCCUAGCUCUGGAGGUGCUGUGGAAUUCUCGGGUGCCAA,0.573
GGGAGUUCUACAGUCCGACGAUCUUGACUUAGGGUCAUAGUACGAGGGGAAUCCACUCCGUGGAAACCUCGGAAUGUCUGAGAAGGGAUAAUUUCAUUUCUAAAAGCUCUGAGCACCGUGAGUUUGAUCUCGAUGGAAUUCUCGGGUGCCAA,0.214
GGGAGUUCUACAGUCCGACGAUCGUUUGCACAAAGGAUUUGACGCCACAGGAGUGUGUGAGGAAGACAGGGCGGGCUGAGGGCAGAAGGCAGUGAGACAUUUAUCCACAGAACAGUCUCCCUCGUCCCACCCAUGGAAUUCUCGGGUGCCAA,0.363
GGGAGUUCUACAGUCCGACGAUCACCCACCUCACAGGCCACCUCAGUGGCGCCUGCCCACUGCGGGCUGGCUGCUCCUACCUACCUCGCCGAGCUGUCGGAGGGCUGGACGCUCCUGGCAGUGCUGAAGGAGGUGGAAUUCUCGGGUGCCAA,0.325
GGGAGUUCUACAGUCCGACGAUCUCCAGUAAGCAGGCAGGCCCAGAGACUGCUUUCUCAGCACCGCACAGAUCUCAGUGGGUCACAUAACUUGCUUUACACUCAUCUUGUUGUGUCAGAAAUAAAGUGUUCGUUGGAAUUCUCGGGUGCCAA,0.453
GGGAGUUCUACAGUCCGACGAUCCUGGCUUGUAUUAUCUGUCCAAAAGGAAGCCUCUUCAUCUCCCGGUGCCUUGGUUGACUAUUUUGGAAAUAGGCAUAUCAAGGUUCCUGAUUCAGCACUUUGCUCUUUUAUGGAAUUCUCGGGUGCCAA,0.287
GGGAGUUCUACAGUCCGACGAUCUCACAGGAGCACAGGCUGUACCACCACAAGGAGCCUCAGAGCGGCCAGUGAGGAAAGGGGAGAGAGCAGAGCUUGCUGUCAGAGGCCAGGCUCCCAGUGCAGCCUCCUCUUGGAAUUCUCGGGUGCCAA,0.287
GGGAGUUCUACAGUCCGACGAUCUAUCUUAAGAGUGCUAAAUUUUUAACUGCCUUUUUGUCGAGUCAAACUGUGGGAUUCUGAUUUGUAUUAAAAUUGUAAGCUCCUCACUGGUAUACUAUCAUCCUGGAGGGUGGAAUUCUCGGGUGCCAA,0.74
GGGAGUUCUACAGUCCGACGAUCACAGACAAAAUGAAGACUAUCAUGUGCAAUCUUUUACAGUGGGGUUGAUGAUACAUUUGGAAGGAUUUGCUUGUUUAAUAUGUACAUUUUUUGUGUUAACAGCUUUUUGAUGGAAUUCUCGGGUGCCAA,1.1
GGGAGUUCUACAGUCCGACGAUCAAGCCCUUGUCUUCUCUUCCCCCCCACCCCACUAGGCCUGGUUAACCUUCCGUUUCCAGCUUCUCCCACUUCAGCCUGUUCCCACGGCACCGGGGUUUCUACUCCUGUACUGGAAUUCUCGGGUGCCAA,1.03
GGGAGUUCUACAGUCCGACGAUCACGCAAGGACAGGGUACAAACUUAGCUGGAAGUCUGCCCAGGCUGAAUGAUCUCUUCCCUAGAGUUGAUUGUCGGGUACACAGUGUGAACCCCCGAAGACGGAACCUCACUGGAAUUCUCGGGUGCCAA,0.606
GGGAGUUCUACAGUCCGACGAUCGAUUAUUUACUUUGUUUAUUGUCUAUAUGCCUUUUAAAAAAAUAAACUUGUUAUGCAAAAUAAAACAUUUGGGUAAGUUGUUUUAGUAUCAUAGCCAAGUGGCCAGAUCUUGGAAUUCUCGGGUGCCAA,0.682

# Excerpt of the above (block 3):
Oligonucleotide,log2 enrichment
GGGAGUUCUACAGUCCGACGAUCUCAAGUCCUGUGCUACACAUCGUAUGUACCGAAUCGGGCCGGGGCCGGGCCGGGGAAAGUAUUAUGUUACGCCGUUCGGAUCUGCACUUCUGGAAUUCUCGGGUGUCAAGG,-0.728
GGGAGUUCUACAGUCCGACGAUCUCAAGUCCUGUGCUACACAUCGUAUGUACCGAAUCGGAAAAAAAGGAAAGGUGGAAAGUAUUAUGUUACGCCGUUCGGAUCUGCACUUCCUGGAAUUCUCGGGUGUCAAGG,-0.248
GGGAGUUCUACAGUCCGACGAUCGUCCUGUGCUACACAUCGUAUGUACCGAAUCGGGGUUUUUGGGGAAAAAGGGGUGGGGAAAGUAUUAUGUUACGCCGUUCGGAUCUGCACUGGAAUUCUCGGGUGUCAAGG,0.885
